Experimental data of several laboratories.
Numbered parts are unrelated; each lists some results of a single study.

Series 1
Target: RING finger protein unkempt homolog, zinc fingers 1-6, GST-SBP tag (UNK, Homo sapiens, UniProt Q9C0B0, residues 30-357)
Method: RNA Bind-n-Seq
Form: RNA
Medium: in vitro
Concentration: not given
Notes: RNA with constant flanks, human and mouse sites, ends assumed
Reference: input RNA pool
Reading: higher = stronger binding
Measurement: bound/input enrichment
Construct (chain): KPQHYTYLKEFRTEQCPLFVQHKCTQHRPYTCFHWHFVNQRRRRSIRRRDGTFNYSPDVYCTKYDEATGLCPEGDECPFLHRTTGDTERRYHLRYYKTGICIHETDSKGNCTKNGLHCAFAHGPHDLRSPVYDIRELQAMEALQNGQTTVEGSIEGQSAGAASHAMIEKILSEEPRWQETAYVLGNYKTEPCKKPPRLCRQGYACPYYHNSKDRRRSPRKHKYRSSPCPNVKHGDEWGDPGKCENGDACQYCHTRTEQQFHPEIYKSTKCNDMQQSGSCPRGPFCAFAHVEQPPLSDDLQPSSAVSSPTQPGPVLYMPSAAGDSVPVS
Oligonucleotide = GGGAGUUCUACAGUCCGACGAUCGGGCUGUCAGACCAGACUUCUAUCCUGUCCAACCUGCCUUCAUUUCAGUCUUUCCACAUUGUUAUUCUGGGUUUGGACUGUGCUGGAAAGACAACUGUCUUAUACAGGCUGCAGUUCAAUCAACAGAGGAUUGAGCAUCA; result = 0.212 ratio
Oligonucleotide = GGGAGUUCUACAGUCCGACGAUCCUUCUUUGUCUUUGGAUCAUUUGCGUUCUCAGUGACACAUUUCUCUUCAGUAAUUGUUGCCAAAUUUAUAAGGAAAAAUGAUUCCCAAUGGAUAUUUGAUGUUUGAAGAUGAAAAUUUUACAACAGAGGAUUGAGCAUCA; result = 0.209 ratio
Oligonucleotide = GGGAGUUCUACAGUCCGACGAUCUGGCGAGAUACUGCAUGUUUGCUGUUCCACAAAGCAGUGGCUUAGCUGCCAUCUUGCUUUUCUUUGGACAACAGGAAGUGAACCUUAAGGAAGAGAGAAUUCUGUUCUAAAACUCCAAAACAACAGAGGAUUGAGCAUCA; result = 0.0971 ratio
Oligonucleotide = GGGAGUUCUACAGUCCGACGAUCGGAUCAUUCACAGUGAGGACAGACACAGGUGAACCUAUGGGUCGUGGAACAAAAGUUAUCCUACACCUGAAAGAAGACCAAACUGAGUACUUGGAGGAACGAAGAAUAAAGGAGAUUGUGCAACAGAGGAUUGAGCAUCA; result = 0.491 ratio
Oligonucleotide = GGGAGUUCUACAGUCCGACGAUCCGGCGCCCUCUCUCCGUGUGGCCCCCUGAGCGGCCCCCCUCCCCUGCCCGGGAGGGAGGCGGGGGGCACCUGGGGCCCGCCAUGAACCCCGGCUUCGAUUUGUCCCGCCGGAACCCGCAGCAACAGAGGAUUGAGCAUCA; result = 0.0646 ratio
Oligonucleotide = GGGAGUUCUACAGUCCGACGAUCUAUGAAGUAUUUCAGACCCAGUAGUAGAACAUCACUCUGCCACUCACUCCUUUAUCUCCUACUAGUUAUUUAAAUUGGACUUUUAAUAUCCUACCAGCUGCUCUUCAGACACACAUGGUGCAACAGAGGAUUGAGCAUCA; result = 20.9 ratio

Series 2
Target: RNA binding protein fox-1 homolog 2, RRM domain, GST-SBP tag (RBFOX2, Homo sapiens, UniProt O43251-10, residues 100-194)
Method: RNA Bind-n-Seq
Form: RNA
Medium: in vitro
Concentration: 365 nM
Notes: natural RNA segment, single round, ends assumed
Reference: no-protein control
Reading: higher = stronger binding
Measurement: RBNS enrichment (R)
Residues (chain): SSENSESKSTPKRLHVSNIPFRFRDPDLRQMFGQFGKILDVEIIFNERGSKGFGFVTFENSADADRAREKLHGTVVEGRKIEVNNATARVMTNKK
Oligonucleotide = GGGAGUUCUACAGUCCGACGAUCAUGAGUAGGUACCAGAUACCAACUCAGUAAUUAAUUUUGUAGCAUUGUCCCCAAGCUCUGGAUUUUUUUCUCUCCAGGACCCAAGUUUUAGGCAGUGAGUAAUGCUUAUAUGGAAUUCUCGGGUGCCAA; result = 0.301
Oligonucleotide = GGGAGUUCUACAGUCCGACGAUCUCCUAAGAGCCCACCUGGAAGUCCACGUAUGCUAGAACUCUGGGCAGGGCCUAAUCUAGCUGAGGUCCAGAAAUACAAACCUGGAACUUCAUAUGGACCAAGUGGCCACAUGGAAUUCUCGGGUGCCAA; result = 0.287
Oligonucleotide = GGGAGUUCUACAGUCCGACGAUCUGACACACUUGGCCCUCGAUGUAUGAAAUCUUGACCAGAAUUAAAAGCAAAGACGUCUCUCCUGUCCAGCUUGUGUGGGUCUGUGUGUCCUGCCCUUAGUCAUUCCUAGUUGGAAUUCUCGGGUGCCAA; result = 0.864
Oligonucleotide = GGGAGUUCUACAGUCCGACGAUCUUUCAAAGCCAGCUAUCUCCUGCACUAGCUGUCUGUGGCCUGUAGAACAAGCUUUUUUCACCAAGCUGGUCUCUGGCCAGGGUGCAGGAAAGUCCACUUCAGCCACCAGGUGGAAUUCUCGGGUGCCAA; result = 0.367
Oligonucleotide = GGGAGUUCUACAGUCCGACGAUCGAGACGCUGUAUGUGUAAACAUCCUGUAAACUUCGUACAAAUGUGAAGUAUUAUUAAUAUUGCUACAGUGUUAUUAUGAUAUUGUUACUAUUAACCAUGUUGGGUGGAUAUGGAAUUCUCGGGUGCCAA; result = 0.48

Series 3
Target: Phosphate system positive regulatory protein PHO4, full length, GST-tagged (PHO4, Saccharomyces cerevisiae, UniProt P07270, residues 1-312)
Method: competition protein-binding microarray
Form: double-stranded DNA, one strand shown
Medium: in vitro
Concentration: 2 µM
Notes: whole 60-bp probe, lowest competitor level
Added: Cbf1 competitor, 0.05 µM
Reading: higher = stronger binding
Measurement: fluorescence intensity
Residues (chain): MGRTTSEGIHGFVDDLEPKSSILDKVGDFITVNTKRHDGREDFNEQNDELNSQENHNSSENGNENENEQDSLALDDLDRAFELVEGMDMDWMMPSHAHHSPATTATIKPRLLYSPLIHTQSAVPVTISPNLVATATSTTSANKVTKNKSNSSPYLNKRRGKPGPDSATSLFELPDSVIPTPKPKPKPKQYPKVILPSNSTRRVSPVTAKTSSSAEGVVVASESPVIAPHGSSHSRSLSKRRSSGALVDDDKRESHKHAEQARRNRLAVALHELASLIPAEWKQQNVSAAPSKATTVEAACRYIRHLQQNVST
Oligonucleotide = TGCGCAACAACTTGCTATGTGGGTGTATGTCTAGAAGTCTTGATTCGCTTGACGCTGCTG; result = 4850 a.u.
Oligonucleotide = AACCACTCGTCGAGTCACACGGAGAGTTGGCCATGAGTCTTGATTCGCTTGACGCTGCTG; result = 4610 a.u.
Oligonucleotide = TGTGGACAGGGTAGATTCGGAGCCGACGCTATAATTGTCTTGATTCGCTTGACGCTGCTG; result = 2430 a.u.
Oligonucleotide = CTAACGAAGGTTTGGAGAGTGGGTGACAAGCCAAGTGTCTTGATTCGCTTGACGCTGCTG; result = 3860 a.u.
Oligonucleotide = AAGATTGCTGAAGACCACATGGAGATACTACGCTCCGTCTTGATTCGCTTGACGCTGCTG; result = 7820 a.u.

Mixed results
Substance = PhoQ, residues 284 288 289 292 302 303 SSYNSA; target = PhoP, residues 12 14 15 18 19 TPLRH (Escherichia coli, UniProt P23836); assay = Sort-seq, refers to: YFP reporter; system = E. coli; setting = PhoQ-PhoP variant library, added: 10 µM Mg2+; how to read = reference: high Mg2+ state, higher = stronger signaling; measurement = fold induction; result = 0.697

A few entries again (series 3):
Oligonucleotide = TGCGCAACAACTTGCTATGTGGGTGTATGTCTAGAAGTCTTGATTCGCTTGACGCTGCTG; result = 4850 a.u.
